Measurements of several laboratories.
Each line is one published result; not all experiments were run side by side. Values joined by “and” are separate records of one study, mostly repeats; a detail may differ.
Target: Dual specificity protein kinase CLK1 (CLK1, Homo sapiens, UniProt P49759)

With `C=CC(=O)N1CCCC(n2c(=O)c3ncccc3n(Cc3ccc(Oc4ccccc4)cc3)c2=O)C1` (stereo not shown) the remaining binding was 93% (cell-free assay, competition with immobilised ligand; 1 µM).
For `Cc1cccc(O[C@H]2CCC[C@@H](C(C)CNCc3ccncc3)C2)c1` (relative stereo), the inhibition was -4% (enzyme activity, inhibitor; 10 µM).
With `Cc1cnc2nc1Nc1cccc(c1)COC/C=C/COCc1cc(ccc1OCCN1CCOCC1)N2` the remaining binding was 91% (binding; 0.1 µM).
The inhibition of `CN1CCN(Cc2ccc(-c3ccc(CO[C@H]4CCC[C@@H]4NC(=O)c4cc(-c5cnn(C)c5)cnc4N)cc3)cc2)CC1` is reported as 7% (enzyme activity, inhibitor; 0.1 µM).
`C=CC(=O)Nc1cccc(-c2cnc3[nH]cc(C(=O)NC(C)(C)C)c3n2)c1` has an inhibition of 9% and 13% (kinase activity; 0.1 µM).
`COCC12C(=O)NC3C4(C(OC)CC1O)C1CC5(O)C(OC)C(O)C(OC(C)=O)(C1C5OC(=O)c1ccccc1)C3(O)C(OC)C24` (stereo not shown) has a remaining activity of 98% and 97% (kinase activity, inhibitor, ProQinase kinase profiling; 25 µM; baseline: control).
Under “activity vs control”, `O=C(Cc1ccc(OCc2ccccc2)cc1)NC1(C(=O)O)CCN(C(=O)c2ccc(-c3cccc(Cl)c3)cc2)CC1` is recorded as 111% (enzyme activity, inhibitor; 10 µM).
For `COc1cc(Nc2nccc(-c3cnn4nc(OC)ccc34)n2)cc(C(F)(F)F)c1`, the remaining binding was 8% (binding, competition with immobilised ligand; 1 µM).
`Nc1ncc(-c2cc(-c3cnn(CC(F)(F)F)c3)ncc2F)nc1C(=O)NC1CNCC(F)C1` (stereo not shown) gave a remaining activity of 57.6% (enzyme activity; 1 µM; baseline: DMSO control).
For `C[C@H]1CN(C(=O)c2cn(-c3ccnc(N)n3)c3cc(C#CC4(O)CCCCC4)ccc23)CCN1`, the inhibition was 2% (enzyme activity, inhibitor, FRET; 1 µM).
The remaining binding of `CC(C)=CC1OC(C)(C)C2C=C3C(=O)C(Cl)=CC(O)C3C3C(O)C4OC4C(=O)C132` (stereo not shown) is reported as 93% (cell-free assay, competition with immobilised ligand; 10 µM).
The inhibition of `NC(=O)C[C@H]1CCc2sc3ncnc(O[C@H]4CC[C@H](N5CCOCC5)CC4)c3c21` is reported as 90% (enzyme activity, inhibitor; 10 µM).
`CCN1CCN(Cc2ccc(C(=O)Nc3ccc(C)c(NCc4cnc5[nH]ccc5c4OC)c3)cc2C(F)(F)F)CC1` has a remaining binding of 83% (binding, competition with immobilised ligand; 1 µM).
For `COc1cc(-n2cc3cc(F)cc(C(N)=O)c3n2)cc(Cl)c1C1CC(O)(CCO)Cc2ccccc21` (stereo not shown), the inhibition was 0.52% (enzyme activity, inhibitor; 10 µM).
With `C=CC(=O)N1Cc2nc(-c3cc(-c4cc(Cl)cnc4Cl)c(F)cc3F)n(-c3ccncn3)c2C1` the inhibition was 6.4% (cell-free assay, inhibitor; 1 µM).
`Cc1ccc(-c2c(/C=C(\C#N)C(=O)NC(C)C)n(CCCO)c3ncnc(N)c23)cc1` has a remaining binding of 79% (cell-free assay, competition with immobilised ligand; 1 µM).

Some of these lines once more:
The inhibition of `NC(=O)C[C@H]1CCc2sc3ncnc(O[C@H]4CC[C@H](N5CCOCC5)CC4)c3c21` is reported as 90% (enzyme activity, inhibitor; 10 µM).
